{"data": "Measured values gathered from unrelated publications", "sample": "plasma", "note": "Protocols differ between the studies behind these lines."}
{"Compound": "C[C@H]1CN(C(=O)c2cn(-c3ccnc(N)n3)c3cc(C#CC4(O)CCCCC4)ccc23)CCN1", "species": "CD-1 mouse", "route": "intravenous", "dose": "1 mg/kg", "AUC(0-t)": "264 ng·h/mL"}
{"Compound": "CCOC(=O)c1nc2cc(Cl)c(Cl)cc2nc1N1CCN(C(=O)Nc2ccc(N3CCNCC3)cc2)CC1", "species": "male mouse", "route": "oral", "dose": "10 mg/kg", "AUC(0-t)": "253 ng·h/mL"}
{"Compound": "CCC(=C(c1ccc(Cl)cc1)c1ccc(OCCN2CCOCC2)cc1)c1ccc(OC)cc1", "species": "male C57BL/6 mouse", "route": "oral", "dose": "400 mg/kg", "notes": "single dose", "AUC(0-t)": "10300 ng·h/mL"}
{"Compound": "CC(C)(O)Cn1nc(-c2ccccc2)c2c(Cl)c(-c3ccccc3)nnc21", "species": "mouse", "route": "intraperitoneal", "dose": "10 mg/kg", "AUC(0-t)": "1.98 µM·h"}
{"Compound": "CC(C)Cn1c(SCC(=O)N2CCc3ccccc3C2)nc2cc(Cl)ccc2c1=O", "species": "male C57BL/6 mouse", "route": "intraperitoneal", "dose": "10 mg/kg", "AUC(0-t)": "5.8 µM·h"}
{"Compound": "C[N+]1(CC(=O)OC2CCCCCCCCCCC2)CCCCC1", "species": "mouse", "route": "intraperitoneal", "dose": "5 mg/kg", "notes": "single dose", "AUC(0-t)": "1870 ng·h/mL"}
{"Compound": "N#Cc1cnc2cc(OCC3CCNCC3)c(F)cc2c1Nc1cc(F)c(OCc2cccc(Cl)n2)cc1Cl", "species": "female CD-1 mouse", "route": "intravenous", "dose": "5 mg/kg", "AUC(0-t)": "2580 ng·h/mL"}
{"Compound": "Cc1ccc2oc(-c3c4c(N)n[nH]c(=O)c4nn3-c3ccc(NC(=O)/C=C/CN(C)C)cc3)c(C)c2c1", "species": "mouse", "route": "intravenous", "dose": "1 mg/kg", "AUC(0-t)": "281 ng·h/mL"}
{"Compound": "CN1/C(=C/C=C/c2cc(-c3ccccc3)cc(-c3ccccc3)[o+]2)C(C)(C)c2ccccc21", "species": "male CD-1 mouse", "route": "intravenous", "dose": "1 mg/kg", "notes": "single dose", "AUC(0-t)": "26.9 ng·h/mL"}
{"Compound": "O=C1C2=C(CCN(Cc3ccccc3)C2)N2CCN=C2N1Cc1ccc(C(F)(F)F)cc1", "species": "female CD-1 mouse", "route": "oral", "dose": "50 mg/kg", "AUC(0-t)": "5720 ng·h/mL"}
{"Compound": "COC(=O)c1ccc2c(c1)NC(=O)/C2=C(\\Nc1ccc2c(c1)CCN2C(=O)CN1CCOCC1)c1ccccc1", "species": "CD-1 mouse", "route": "oral", "dose": "50 mg/kg", "AUC(0-t)": "17000 ng·h/mL"}
{"Compound": "COc1cccc2c1C(=O)c1c(O)c3c(c(O)c1C2=O)CC(O)(C(=O)CO)CC3OC1CC(NC(=O)C[C@H](N)C(=O)O)C(O)C(C)O1 (stereo partly shown)", "species": "mouse", "route": "intravenous", "dose": "5 mg/kg", "AUC(0-t)": "21600 ng·h/mL"}
{"Compound": "CN1CC[C@H](c2c(O)cc(O)c3c(=O)cc(/C=C/c4c(Cl)cccc4Cl)oc23)[C@H](O)C1", "species": "male BALB/c mouse", "route": "oral", "dose": "50 mg/kg", "AUC(0-t)": "3600 ng·h/mL"}
